{"data": "Results pooled from the literature", "note": "Every numbered part comes from another study and shows a few of its results, in no order.", "sequence of UniProt Q16644 (whole entry, looked up)": "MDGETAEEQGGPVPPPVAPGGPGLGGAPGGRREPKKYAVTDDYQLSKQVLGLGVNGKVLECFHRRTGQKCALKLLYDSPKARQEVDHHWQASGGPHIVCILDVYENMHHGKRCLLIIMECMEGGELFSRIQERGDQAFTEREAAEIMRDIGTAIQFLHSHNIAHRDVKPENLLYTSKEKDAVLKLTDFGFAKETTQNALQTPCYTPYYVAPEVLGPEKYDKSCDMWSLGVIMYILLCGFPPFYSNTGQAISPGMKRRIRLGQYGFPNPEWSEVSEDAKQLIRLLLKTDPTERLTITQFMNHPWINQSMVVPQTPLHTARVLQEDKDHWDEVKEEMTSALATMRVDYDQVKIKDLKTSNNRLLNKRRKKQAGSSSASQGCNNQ", "sequence of UniProt Q9GZQ6 (whole entry, looked up)": "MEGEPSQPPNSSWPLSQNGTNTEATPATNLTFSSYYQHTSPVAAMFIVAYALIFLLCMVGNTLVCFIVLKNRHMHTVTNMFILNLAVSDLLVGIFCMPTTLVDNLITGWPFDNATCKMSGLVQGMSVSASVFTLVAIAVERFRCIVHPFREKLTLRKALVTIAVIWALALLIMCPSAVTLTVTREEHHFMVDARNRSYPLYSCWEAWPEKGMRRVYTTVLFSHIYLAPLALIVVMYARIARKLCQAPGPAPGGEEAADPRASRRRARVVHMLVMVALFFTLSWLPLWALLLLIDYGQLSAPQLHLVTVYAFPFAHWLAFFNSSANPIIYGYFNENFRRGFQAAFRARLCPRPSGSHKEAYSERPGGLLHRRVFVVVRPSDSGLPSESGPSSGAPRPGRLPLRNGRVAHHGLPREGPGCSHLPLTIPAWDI", "sequence of UniProt Q9UEE5 (whole entry, looked up)": "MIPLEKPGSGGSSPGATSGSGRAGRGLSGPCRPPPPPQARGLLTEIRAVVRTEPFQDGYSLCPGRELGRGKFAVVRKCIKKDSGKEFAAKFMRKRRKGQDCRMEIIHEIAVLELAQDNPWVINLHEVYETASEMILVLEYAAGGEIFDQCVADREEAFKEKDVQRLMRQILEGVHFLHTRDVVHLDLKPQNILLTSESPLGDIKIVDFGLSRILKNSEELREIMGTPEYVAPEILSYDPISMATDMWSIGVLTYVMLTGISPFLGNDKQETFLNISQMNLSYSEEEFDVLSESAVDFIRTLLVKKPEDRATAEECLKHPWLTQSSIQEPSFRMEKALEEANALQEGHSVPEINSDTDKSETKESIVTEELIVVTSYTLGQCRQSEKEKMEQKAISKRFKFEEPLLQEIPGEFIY", "sequence of UniProt Q9H2X6 (whole entry, looked up)": "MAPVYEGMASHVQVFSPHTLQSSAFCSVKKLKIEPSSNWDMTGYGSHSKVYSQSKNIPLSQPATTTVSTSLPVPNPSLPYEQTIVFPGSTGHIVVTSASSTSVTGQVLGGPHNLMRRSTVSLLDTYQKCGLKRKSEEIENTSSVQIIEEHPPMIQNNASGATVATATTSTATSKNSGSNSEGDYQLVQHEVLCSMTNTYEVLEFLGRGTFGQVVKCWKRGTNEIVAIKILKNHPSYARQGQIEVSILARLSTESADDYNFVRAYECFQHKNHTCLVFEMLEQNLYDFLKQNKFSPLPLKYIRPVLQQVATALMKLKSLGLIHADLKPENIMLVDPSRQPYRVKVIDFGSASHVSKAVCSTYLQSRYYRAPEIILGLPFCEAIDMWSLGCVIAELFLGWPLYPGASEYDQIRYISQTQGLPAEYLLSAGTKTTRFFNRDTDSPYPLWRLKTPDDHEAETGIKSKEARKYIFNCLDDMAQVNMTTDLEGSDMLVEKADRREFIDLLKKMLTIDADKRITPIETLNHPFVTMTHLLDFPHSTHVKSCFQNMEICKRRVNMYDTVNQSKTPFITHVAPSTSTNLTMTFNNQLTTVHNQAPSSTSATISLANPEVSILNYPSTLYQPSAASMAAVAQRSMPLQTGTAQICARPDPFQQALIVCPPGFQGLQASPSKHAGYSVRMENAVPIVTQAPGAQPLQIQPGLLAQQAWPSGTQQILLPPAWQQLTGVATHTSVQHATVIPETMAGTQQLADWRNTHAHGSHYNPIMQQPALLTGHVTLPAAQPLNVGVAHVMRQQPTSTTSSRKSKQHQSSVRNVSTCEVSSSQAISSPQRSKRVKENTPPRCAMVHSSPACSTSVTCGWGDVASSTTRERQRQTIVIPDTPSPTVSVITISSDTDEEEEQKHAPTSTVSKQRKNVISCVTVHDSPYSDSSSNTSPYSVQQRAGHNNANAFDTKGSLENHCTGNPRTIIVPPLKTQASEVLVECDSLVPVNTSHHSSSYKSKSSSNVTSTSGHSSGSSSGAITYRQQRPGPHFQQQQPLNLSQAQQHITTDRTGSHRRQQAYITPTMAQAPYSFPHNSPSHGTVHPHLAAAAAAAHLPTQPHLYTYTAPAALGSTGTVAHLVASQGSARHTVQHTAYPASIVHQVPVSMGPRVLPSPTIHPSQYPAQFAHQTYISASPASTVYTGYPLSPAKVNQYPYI", "sequence of UniProt Q9Y5N1 (whole entry, looked up)": "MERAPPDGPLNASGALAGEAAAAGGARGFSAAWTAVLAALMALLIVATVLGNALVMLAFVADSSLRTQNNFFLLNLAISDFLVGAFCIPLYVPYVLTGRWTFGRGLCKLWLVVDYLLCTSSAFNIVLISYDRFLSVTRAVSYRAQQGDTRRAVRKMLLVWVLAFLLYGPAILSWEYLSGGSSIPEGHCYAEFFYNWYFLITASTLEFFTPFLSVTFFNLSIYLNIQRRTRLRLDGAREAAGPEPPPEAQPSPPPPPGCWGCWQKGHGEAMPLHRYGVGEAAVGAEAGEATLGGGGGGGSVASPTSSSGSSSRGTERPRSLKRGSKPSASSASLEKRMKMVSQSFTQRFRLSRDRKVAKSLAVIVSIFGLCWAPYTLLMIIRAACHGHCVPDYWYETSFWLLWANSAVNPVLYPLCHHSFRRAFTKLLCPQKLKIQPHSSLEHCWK", "sequence of UniProt P32248 (whole entry, looked up)": "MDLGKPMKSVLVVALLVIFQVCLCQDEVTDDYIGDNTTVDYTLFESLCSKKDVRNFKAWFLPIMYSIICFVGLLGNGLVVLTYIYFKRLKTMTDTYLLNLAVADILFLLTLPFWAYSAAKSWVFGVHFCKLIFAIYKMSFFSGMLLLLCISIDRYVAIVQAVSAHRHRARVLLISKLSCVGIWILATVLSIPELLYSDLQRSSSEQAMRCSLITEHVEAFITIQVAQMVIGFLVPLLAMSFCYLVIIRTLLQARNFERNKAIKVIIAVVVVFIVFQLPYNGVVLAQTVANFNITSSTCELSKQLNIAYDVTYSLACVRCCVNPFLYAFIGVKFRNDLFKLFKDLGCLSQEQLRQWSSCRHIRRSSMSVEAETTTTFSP", "sequence of UniProt Q00534 (whole entry, looked up)": "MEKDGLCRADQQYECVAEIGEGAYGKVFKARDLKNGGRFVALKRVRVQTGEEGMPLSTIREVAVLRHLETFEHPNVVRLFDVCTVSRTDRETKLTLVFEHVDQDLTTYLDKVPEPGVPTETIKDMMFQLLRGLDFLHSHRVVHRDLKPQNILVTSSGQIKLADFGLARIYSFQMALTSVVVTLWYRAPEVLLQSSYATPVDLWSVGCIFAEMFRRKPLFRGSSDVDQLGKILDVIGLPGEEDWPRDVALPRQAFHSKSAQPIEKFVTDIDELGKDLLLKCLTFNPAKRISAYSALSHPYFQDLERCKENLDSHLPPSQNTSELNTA", "sequence of UniProt Q16816 (whole entry, looked up)": "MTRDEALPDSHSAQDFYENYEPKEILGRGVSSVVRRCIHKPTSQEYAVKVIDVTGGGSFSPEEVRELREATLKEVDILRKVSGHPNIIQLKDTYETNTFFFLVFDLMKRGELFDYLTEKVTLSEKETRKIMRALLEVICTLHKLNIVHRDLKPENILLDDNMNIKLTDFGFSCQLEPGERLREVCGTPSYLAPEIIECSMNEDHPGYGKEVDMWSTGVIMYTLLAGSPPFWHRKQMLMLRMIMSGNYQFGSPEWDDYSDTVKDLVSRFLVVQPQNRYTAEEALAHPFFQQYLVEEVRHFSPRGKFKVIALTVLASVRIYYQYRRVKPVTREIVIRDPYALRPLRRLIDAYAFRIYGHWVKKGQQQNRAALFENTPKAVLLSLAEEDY"}
{"data": "Study 1", "SMILES": "N=C(N)NC(=O)c1cnn(-c2cccc3ncccc23)c1C1CC1", "effect on": "β-arrestin recruitment", "action": "agonist", "method": "PRESTO-Tango", "tested at": "10 µM", "relative to": "untreated"}
{"target": "LPAR1 (Homo sapiens, UniProt Q92633)", "fold over basal": 0.83}
{"target": "GNRHR (Homo sapiens, UniProt P30968)", "fold over basal": "1 fold"}
{"target": "NPY4R (Homo sapiens, UniProt P50391)", "fold over basal": 1}
{"target": "Trace amine-associated receptor 9 (TAAR9, Homo sapiens, UniProt Q96RI9)", "fold over basal": "0.85 fold"}
{"target": "CCR7 (Homo sapiens, UniProt P32248)", "fold over basal": 1.12}
{"target": "Apelin receptor (APLNR, Homo sapiens, UniProt P35414)", "fold over basal": 1.12}
{"target": "HRH3 (Homo sapiens, UniProt Q9Y5N1)", "fold over basal": "0.75 fold"}
{"target": "P2Y purinoceptor 11 (P2RY11, Homo sapiens, UniProt Q96G91)", "fold over basal": 1.89}
{"target": "GRM1 (Homo sapiens, UniProt Q13255)", "fold over basal": "0.94 fold"}
{"target": "NPY1R (Homo sapiens, UniProt P25929)", "fold over basal": 1}
{"target": "NPFFR1 (Homo sapiens, UniProt Q9GZQ6)", "fold over basal": 0.93}
{"target": "Probable G-protein coupled receptor 160 (GPR160, Homo sapiens, UniProt Q9UJ42)", "fold over basal": 1.01}
{"target": "DRD1 (Homo sapiens, UniProt P21728)", "fold over basal": 0.81}
{"data": "Study 2", "SMILES": "O=C(NC(NC(=S)Nc1ccc(F)c([N+](=O)[O-])c1)C(Cl)(Cl)Cl)C(c1ccccc1)c1ccccc1 (stereo not shown)", "effect on": "enzyme activity", "action": "inhibitor", "tested at": "0.5 µM", "relative to": "control"}
{"target": "WNK3 (Homo sapiens, UniProt Q9BYP7)", "remaining activity": "108%"}
{"target": "EPHA4 (Homo sapiens, UniProt P54764)", "remaining activity": "101%"}
{"target": "Cyclin-dependent kinase 4, with cyclin D3 (CDK4, Homo sapiens, UniProt P11802)", "remaining activity": "93.7%"}
{"target": "HIPK4 (Homo sapiens, UniProt Q8NE63)", "remaining activity": "104%"}
{"target": "STK16 (Homo sapiens, UniProt O75716)", "remaining activity": "99.4%"}
{"target": "DYRK3 (Homo sapiens, UniProt O43781)", "remaining activity": "100%"}
{"target": "EPHB1 (Homo sapiens, UniProt P54762)", "remaining activity": "109%"}
{"target": "STK17A (Homo sapiens, UniProt Q9UEE5)", "remaining activity": "99.8%"}
{"target": "Cyclin-dependent kinase 1, with cyclin B (CDK1, Homo sapiens, UniProt P06493)", "remaining activity": "92.1%"}
{"target": "RPS6KA5 (Homo sapiens, UniProt O75582)", "remaining activity": "113%"}
{"target": "MAPKAPK3 (Homo sapiens, UniProt Q16644)", "remaining activity": "106%"}
{"target": "AXL (Homo sapiens, UniProt P30530)", "remaining activity": "112%"}
{"target": "RPS6KA6 (Homo sapiens, UniProt Q9UK32)", "remaining activity": "94.7%"}
{"target": "Cyclin-dependent kinase 6, with cyclin D3 (CDK6, Homo sapiens, UniProt Q00534)", "remaining activity": "99.3%"}
{"target": "PDPK1 (Homo sapiens, UniProt O15530)", "remaining activity": "112%"}
{"target": "PHKG1 (Homo sapiens, UniProt Q16816)", "remaining activity": "104%"}
{"target": "TSSK2 (Homo sapiens, UniProt Q96PF2)", "remaining activity": "92.7%"}
{"target": "MAP4K4 (Homo sapiens, UniProt O95819)", "remaining activity": "92.7%"}
{"target": "BLK (Homo sapiens, UniProt P51451)", "remaining activity": "110%"}
{"target": "CAMK2B (Homo sapiens, UniProt Q13554)", "remaining activity": "104%"}
{"target": "EPHB4 (Homo sapiens, UniProt P54760)", "remaining activity": "101%"}
{"target": "HIPK2 (Homo sapiens, UniProt Q9H2X6)", "remaining activity": "118%"}
{"data": "Study 3", "method": "PRP chromatography estimate", "matrix": "1,9-decadiene/PBS", "pH": "7.4"}
{"SMILES": "CC(C)C[C@@H]1NC(=O)[C@H](CC(C)C)NC(=O)[C@@H](CC(C)C)NC(=O)[C@@H](C(C)C)NC(=O)[C@H](C(C)C)NC(=O)[C@H](CC(C)C)NC(=O)[C@@H](CC(C)C)NC1=O", "logD": 2.04}
{"SMILES": "CC(C)C[C@@H]1NC(=O)[C@H](CC(C)C)NC(=O)[C@@H](C(C)C)NC(=O)[C@H](C(C)C)NC(=O)[C@@H](Cc2cscn2)NC(=O)[C@H](C)NC(=O)[C@H](CCC(=O)N2CCCC2)NC1=O", "logD": -2.62}
{"SMILES": "CC(C)C[C@@H]1NC(=O)[C@H](C)NC(=O)[C@H](CCC(=O)N2CCCC2)NC(=O)[C@@H](CCC(=O)N2CCCC2)NC(=O)[C@H](CC(C)C)NC(=O)[C@@H](CC(C)C)NC(=O)[C@H](CC(C)C)NC1=O", "logD": -1.8}
{"SMILES": "CC(C)C[C@@H]1NC(=O)[C@H](C)NC(=O)[C@@H](CC(C)C)NC(=O)[C@@H](CC(C)C)NC(=O)[C@@H](CCC(=O)N2CCCC2)NC(=O)[C@H](CC(C)C)NC(=O)[C@@H](CC(C)C)NC1=O", "logD": -0.075}
{"SMILES": "CC(C)C[C@@H]1NC(=O)[C@H](CC(C)C)NC(=O)[C@@H](CC(C)C)NC(=O)[C@H](CC(C)C)NC(=O)[C@@H](CCC(=O)N2CCCC2)NC(=O)[C@H](C)NC(=O)[C@H](C)NC1=O", "logD": -1.95}
{"SMILES": "CC(C)C[C@@H]1NC(=O)[C@H](CC(C)C)NC(=O)[C@H](CC(C)C)NC(=O)[C@@H](C)NC(=O)[C@H](C)NC(=O)[C@@H](CC(C)C)NC(=O)[C@H](C)NC1=O", "logD": -1.95}
{"SMILES": "CC(C)C[C@@H]1NC(=O)[C@H](C(C)C)NC(=O)[C@H](C)NC(=O)[C@H](CCC(=O)N2CCCC2)NC(=O)[C@@H](CCC(=O)N2CCCC2)NC(=O)[C@H](CC(C)C)NC(=O)[C@@H](CC(C)C)NC1=O", "logD": -2.43}
{"SMILES": "CC(C)C[C@@H]1NC(=O)[C@H](C)NC(=O)[C@H](C)NC(=O)[C@@H](CC(C)C)NC(=O)[C@H](C(C)C)NC(=O)[C@H](CC(C)C)NC(=O)[C@@H](CC(C)C)NC1=O", "logD": -0.673}
{"data": "Study 4", "SMILES": "C=CCc1ccc(O)c(-c2cc(CC=C)ccc2O)c1", "effect on": "chloride current", "ANO1 del476-501/K629A": "Anoctamin-1 (ANO1, Homo sapiens, UniProt Q5XXA6, del476-501/K629A)", "ANO1 del476-501/R541A": "Anoctamin-1 (ANO1, Homo sapiens, UniProt Q5XXA6, del476-501/R541A)", "ANO1 del476-501/E649A/R541A": "Anoctamin-1 (ANO1, Homo sapiens, UniProt Q5XXA6, del476-501/E649A/R541A)", "sequence of UniProt Q5XXA6 (whole entry, unmodified, looked up)": "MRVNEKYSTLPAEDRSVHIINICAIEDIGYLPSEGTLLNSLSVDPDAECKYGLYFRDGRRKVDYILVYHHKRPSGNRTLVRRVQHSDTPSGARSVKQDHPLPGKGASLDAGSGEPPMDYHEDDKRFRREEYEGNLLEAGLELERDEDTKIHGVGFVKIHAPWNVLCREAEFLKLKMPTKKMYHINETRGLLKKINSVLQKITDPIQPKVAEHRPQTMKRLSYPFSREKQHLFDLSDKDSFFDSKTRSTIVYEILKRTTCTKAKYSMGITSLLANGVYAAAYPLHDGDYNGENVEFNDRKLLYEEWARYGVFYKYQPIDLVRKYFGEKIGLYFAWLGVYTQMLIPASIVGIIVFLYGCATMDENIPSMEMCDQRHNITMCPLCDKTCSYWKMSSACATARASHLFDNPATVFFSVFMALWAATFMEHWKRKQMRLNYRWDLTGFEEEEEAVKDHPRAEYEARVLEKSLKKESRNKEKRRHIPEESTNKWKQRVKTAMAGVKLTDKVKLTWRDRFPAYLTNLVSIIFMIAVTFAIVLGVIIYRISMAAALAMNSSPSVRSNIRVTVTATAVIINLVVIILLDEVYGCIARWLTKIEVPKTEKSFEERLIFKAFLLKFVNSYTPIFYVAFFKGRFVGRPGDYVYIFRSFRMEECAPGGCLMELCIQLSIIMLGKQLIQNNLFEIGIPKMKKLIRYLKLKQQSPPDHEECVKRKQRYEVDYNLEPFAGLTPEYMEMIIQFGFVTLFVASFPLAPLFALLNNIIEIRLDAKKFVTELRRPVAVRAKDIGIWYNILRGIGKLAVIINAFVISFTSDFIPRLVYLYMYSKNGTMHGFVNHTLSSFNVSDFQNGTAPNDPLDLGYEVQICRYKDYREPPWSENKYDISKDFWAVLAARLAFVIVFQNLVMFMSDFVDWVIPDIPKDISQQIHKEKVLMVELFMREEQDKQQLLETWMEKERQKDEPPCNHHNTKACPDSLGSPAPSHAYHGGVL"}
{"target": "TMEM16A (human) K603A/E623A", "assay": "inside-out patch clamp", "conditions": "30 µM, membrane voltage -20 mV", "normalized current": -0.0732}
{"target": "ANO1 del476-501/K629A", "assay": "inhibitor, whole-cell voltage clamp", "conditions": "10 µM", "how to read": "relative to: untreated", "normalized current": 0.964}
{"target": "Anoctamin-1 (ANO1, Homo sapiens, UniProt Q5XXA6, del476-501/E659A)", "assay": "inside-out patch clamp", "conditions": "30 µM, membrane voltage -20 mV", "normalized current": -0.185}
{"target": "Anoctamin-1 (ANO1, Homo sapiens, UniProt Q5XXA6)", "assay": "inside-out patch clamp", "conditions": "30 µM, membrane voltage 60 mV", "normalized current": 0.536}
{"target": "ANO1 del476-501/R541A", "assay": "inhibitor, whole-cell voltage clamp", "conditions": "100 µM, R515A mutant", "normalized current": 0.517}
{"target": "Anoctamin-1 (ANO1, Homo sapiens, UniProt Q5XXA6, del476-501/E659A/K629A)", "assay": "inside-out patch clamp", "conditions": "30 µM, membrane voltage -40 mV", "normalized current": -0.238}
{"target": "ANO1 del476-501/K629A", "assay": "inside-out patch clamp", "conditions": "30 µM, membrane voltage 100 mV", "normalized current": 0.754}
{"target": "ANO1 del476-501/R541A", "assay": "inside-out patch clamp", "conditions": "30 µM, membrane voltage -40 mV", "normalized current": -0.217}
{"target": "Anoctamin-1 (ANO1, Homo sapiens, UniProt Q5XXA6, del476-501)", "assay": "whole-cell voltage clamp", "conditions": "30 µM, membrane voltage 0 mV, added: 4 µM Ca2+ (saturating)", "normalized current": -0.00026}
{"target": "ANO1 del476-501/K629A", "assay": "inhibitor, whole-cell voltage clamp", "conditions": "30 µM", "how to read": "relative to: untreated", "normalized current": 0.946}
{"target": "ANO1 del476-501/E649A/R541A", "assay": "inside-out patch clamp", "conditions": "30 µM, membrane voltage 40 mV", "normalized current": 0.217}
{"target": "ANO1 del476-501/E649A/R541A", "assay": "inside-out patch clamp", "conditions": "30 µM, membrane voltage -60 mV", "normalized current": -0.261}
{"note": "A few entries again (study 1):"}
{"target": "CCR7 (Homo sapiens, UniProt P32248)", "fold over basal": 1.12}
{"target": "HRH3 (Homo sapiens, UniProt Q9Y5N1)", "fold over basal": "0.75 fold"}
{"target": "GRM1 (Homo sapiens, UniProt Q13255)", "fold over basal": "0.94 fold"}
{"target": "NPFFR1 (Homo sapiens, UniProt Q9GZQ6)", "fold over basal": 0.93}
{"target": "Probable G-protein coupled receptor 160 (GPR160, Homo sapiens, UniProt Q9UJ42)", "fold over basal": 1.01}
{"target": "Apelin receptor (APLNR, Homo sapiens, UniProt P35414)", "fold over basal": 1.12}
{"target": "LPAR1 (Homo sapiens, UniProt Q92633)", "fold over basal": 0.83}
